{"sequences": {"note": "By UniProt entry, the sequences of proteins in these tests, tags left out.", "UniProt P41143, whole entry": "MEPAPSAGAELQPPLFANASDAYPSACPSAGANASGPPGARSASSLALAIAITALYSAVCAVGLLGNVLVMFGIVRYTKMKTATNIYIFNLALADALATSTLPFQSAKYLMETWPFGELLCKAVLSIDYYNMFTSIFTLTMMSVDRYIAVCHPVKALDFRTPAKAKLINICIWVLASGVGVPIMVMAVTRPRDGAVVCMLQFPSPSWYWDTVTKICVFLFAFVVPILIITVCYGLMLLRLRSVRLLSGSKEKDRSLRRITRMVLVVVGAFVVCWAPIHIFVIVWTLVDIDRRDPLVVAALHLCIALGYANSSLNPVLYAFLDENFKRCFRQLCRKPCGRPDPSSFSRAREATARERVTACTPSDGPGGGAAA"}, "data": "Literature values that unrelated publications cite", "note": "Protocols differ between the studies behind these lines. ± marks the error that the study gave."}
{"SMILES": "COc1ccc(OC[C@H]2c3cccn3CC(=O)N2Cc2cccc(F)c2)cc1", "measurement": "aqueous solubility", "result": "74 µM"}
{"SMILES": "CN1CC[C@]23c4c5ccc(O)c4O[C@H]2[C@@H](O)C=C[C@H]3[C@H]1C5", "assay": "antinociception, hot plate test", "system": "Sprague-Dawley rat, male", "conditions": "subcutaneous", "measurement": "ED50", "result": "3.94 mg/kg"}
{"SMILES": "CCCCN1C(=O)C(CC2CCCCC2)NC(=O)C12CCN(Cc1ccc(Oc3ccccc3)cc1)CC2.Cl (stereo not drawn)", "tested on": "HIV-1", "assay": "infectivity and replication", "conditions": "laboratory, clinical, drug-resistant strains", "measurement": "viral replication", "result": "inhibited"}
{"SMILES": "CCN1CC(n2nccc2-c2cc(C(F)(F)F)ccc2Oc2ccc(S(=O)(=O)Nc3ncns3)cc2C#N)C1", "tested on": "Nav1.7", "assay": "sodium current, voltage clamp", "measurement": "IC50", "result": "1 nM"}
{"SMILES": "COCO[C@H]1C[C@@H](C(=O)OC)[C@]2(C)CC[C@H]3C(=O)O[C@H](c4ccoc4)C[C@]3(C)[C@H]2C1=O", "system": "rodents", "conditions": "intraperitoneal, dose not given", "measurement": "duration of antinociception", "result": "> 2 h"}
{"SMILES": "NC(=O)N1c2ccccc2C=Cc2ccccc21", "assay": "convulsive seizures", "system": "rat lithium-pilocarpine status epilepticus", "conditions": "0 min after SE onset", "measurement": "ED50", "result": "45 mg/kg"}
{"SMILES": "C=CC(=O)N1C[C@H](c2ccc(Br)cc2)[C@@H]1C(=O)Nc1cccc2cccnc12", "tested on": "22Rv1", "assay": "activity-based protein profiling, measured: cysteine 271", "conditions": "5 µM, 3 h", "scale": "baseline: DMSO", "measurement": "target engagement", "result": "> 90%"}
{"SMILES": "O=C(O)c1cccc(Nc2cc(N3CCCCCC3)c3noc4c3c2C(=O)c2ccccc2-4)c1", "tested on": "human uPAR-uPA interaction", "assay": "protein-protein interaction, inhibitor", "measurement": "IC50", "result": "10000 nM"}
{"SMILES": "CCCC(CCC)C(=O)O", "assay": "convulsive seizures", "system": "rat lithium-pilocarpine status epilepticus", "conditions": "0 min after SE onset", "measurement": "ED50", "result": "366 mg/kg"}
{"SMILES": "CNC(=O)Oc1cccc2ccccc12", "tested on": "acetylcholinesterase 1 (Anopheles gambiae)", "measurement": "Ka", "result": "4.7 µM"}
{"SMILES": "CCN(CC)Cc1cc(Nc2ccnc3cc(Cl)ccc23)ccc1O", "conditions": "phenol group", "measurement": "pKa", "result": "8 to 9"}
{"SMILES": "CCOP(=O)(OCC)Oc1nc(Cl)c(Cl)cc1Cl", "tested on": "neuropathy target esterase human", "assay": "enzyme activity, inhibitor", "system": "human brain homogenate", "conditions": "20 min", "measurement": "IC50", "result": "180 nM"}
{"SMILES": "O=C1CN=C(c2ccccc2Cl)c2cc([N+](=O)[O-])ccc2N1", "assay": "convulsive seizures", "system": "rat lithium-pilocarpine status epilepticus", "conditions": "30 min after SE onset", "measurement": "ED50", "result": "> 40 mg/kg"}
{"SMILES": "NC(=O)[C@H](Cc1ccccc1)NC(=O)[C@H](CCCN=C(N)N)NC(=O)C12CC3CC(CC(C3)C1)C2", "tested on": "Delta-type opioid receptor (OPRD1, Homo sapiens, UniProt P41143)", "assay": "binding", "measurement": "Ki", "result": "> 5000 nM"}
{"SMILES": "NC(=O)c1ccc(-c2cc(C(=O)O)cc(-n3cc(-c4ccc(C(F)(F)F)cc4)nn3)c2)cc1", "system": "simulated intestinal fluid", "measurement": "half-life", "result": "> 4 h"}
{"SMILES": "CCC1(c2ccccc2)C(=O)NC(=O)NC1=O", "assay": "convulsive seizures", "system": "rat lithium-pilocarpine status epilepticus", "conditions": "0 min after SE onset", "measurement": "ED50", "result": "31 mg/kg"}
{"SMILES": "Nc1ccccc1O", "tested on": "heterotrophic aerobic bacteria", "system": "mixed culture", "measurement": "IC50", "result": "370 nM"}
{"SMILES": "CCCN(CCC)c1c(C#N)cc(S(=O)(=O)Nc2ccccc2)cc1C#N", "tested on": "Leishmania donovani", "assay": "cell growth", "system": "axenic amastigotes", "measurement": "IC50", "result": "4400 ± 90 nM"}
{"note": "Excerpt of the above:"}
{"SMILES": "CCOP(=O)(OCC)Oc1nc(Cl)c(Cl)cc1Cl", "tested on": "neuropathy target esterase human", "assay": "enzyme activity, inhibitor", "system": "human brain homogenate", "conditions": "20 min", "measurement": "IC50", "result": "180 nM"}
{"SMILES": "O=C1CN=C(c2ccccc2Cl)c2cc([N+](=O)[O-])ccc2N1", "assay": "convulsive seizures", "system": "rat lithium-pilocarpine status epilepticus", "conditions": "30 min after SE onset", "measurement": "ED50", "result": "> 40 mg/kg"}
